Assay results from different studies.
Numbered parts are unrelated; each lists some results of a single study. Positions count from the first letter of the parent shown.

Sample 1
Target: Interferon regulatory factor 5, full length, phosphomimetic (IRF5, Homo sapiens, UniProt Q13568-2, residues 1-514, K96S/S451D/S453D/S456D/S462D)
Method: protein-binding microarray
Molecule type: double-stranded DNA, one strand shown
Matrix: in vitro
Tested at: 250 nM
Setting: 60-bp whole probe
Together with: salmon DNA 0.4 mg/ml
Relative to: random background probes
Direction: higher = stronger binding
Measurement: log fluorescence
Constant ends, left off below: GCCTAGCAC … GTCTTGATTCGCTTGACGCTGCTG
Oligonucleotide = GAGGATATCAGACTGGAGACGTGCTAG; result = -0.28 z-score
Oligonucleotide = TTAGATTTCGGCTTTCGATTAGTGCTA; result = 8.27 z-score
Oligonucleotide = GACGGTTCCCTTTTCCTGCCGTGCTAG; result = 0.049 z-score
Oligonucleotide = TTAGGTCTCCTACTCCTTTAGTGCTAG; result = -0.128 z-score
Oligonucleotide = GCCGGTTTCCTTTTCCTGACGTGCTAG; result = 1.33 z-score
Oligonucleotide = TTAGATCCCAGTCTCGATTAGTGCTAG; result = 0.445 z-score
Oligonucleotide = TTAGGTCTCCTTCACCTTTAGTGCTAG; result = -0.17 z-score
Oligonucleotide = GACGACTTCAGTTTCGAGACGTGCTAG; result = 5.14 z-score
Oligonucleotide = GACGGTCTCCTTATCCTGACGTGCTAG; result = 0.01 z-score
Oligonucleotide = TTACGTCTCGGTATCGGTTAGTGCTAG; result = 5.93 z-score
Oligonucleotide = TTAGGTATCCTTATCCTTTGGTGCTAG; result = 0.09 z-score
Oligonucleotide = GACGTACTGCTTATCCTGACGTGCTAG; result = -0.111 z-score
Oligonucleotide = TCAGATTTTTTTTCCTAACTGTGCTAG; result = 0.716 z-score
Oligonucleotide = TTTCAGCTGTTTTTCTCACCGTGCTAG; result = 6.85 z-score
Oligonucleotide = TTAGGACTGCTTATCCCTTAGTGCTAG; result = -0.322 z-score
Oligonucleotide = ATAGGACTGGGGACTGGGTTAGTGCTA; result = -0.422 z-score
Oligonucleotide = AGTGTTTGCCCTATTTAAGAGTGCTAG; result = 0.0129 z-score
Oligonucleotide = GACGGATTGGGTTTCGGGACGTGCTAG; result = 2.67 z-score
Oligonucleotide = GACAGTATCGGACTGGGGACGTGCTAG; result = 2.31 z-score

Sample 2
Target: CCNE1, cyclin fold, Cln2 fusion (human)
Method: yeast growth competition, sequencing
Matrix: yeast
Setting: strong parent motif
Relative to: not given
Direction: higher = stronger binding
Measurement: normalised enrichment score
Parent: CDC25A docking peptide (human); PPHRRRLLFACSP
Variant = R6K; result = 1.6
Variant = C11V; result = 1.74
Variant = R5P; result = 0.103
Variant = R4Q; result = 1.08
Variant = H3L; result = 1.07
Variant = L7D; result = 0.0121
Variant = F9T; result = 1.15
Variant = R6Y; result = 0.271
Variant = L8K; result = 1.27
Variant = A10I; result = 0.88
Variant = P13R; result = 0.681
Variant = F9W; result = 0.912
Variant = P13H; result = 1.14
Variant = R6Q; result = 1.21
Variant = R4E; result = 0.204
Variant = R4K; result = 1.96
Variant = S12D; result = 1.67
Variant = P1T; result = 1.49
Variant = H3D; result = 1.13
Variant = F9H; result = 0.515
Variant = R5L; result = 1.6
Variant = L7Y; result = 0.632
Variant = P13T; result = 1.76
Variant = C11P; result = 1.28
Variant = A10C; result = 1.16

Sample 3
Target: RING finger protein unkempt homolog, zinc fingers 1-6, GST-SBP tag (UNK, Homo sapiens, UniProt Q9C0B0, residues 30-357)
Sequence of UniProt Q9C0B0 (30-357, looked up): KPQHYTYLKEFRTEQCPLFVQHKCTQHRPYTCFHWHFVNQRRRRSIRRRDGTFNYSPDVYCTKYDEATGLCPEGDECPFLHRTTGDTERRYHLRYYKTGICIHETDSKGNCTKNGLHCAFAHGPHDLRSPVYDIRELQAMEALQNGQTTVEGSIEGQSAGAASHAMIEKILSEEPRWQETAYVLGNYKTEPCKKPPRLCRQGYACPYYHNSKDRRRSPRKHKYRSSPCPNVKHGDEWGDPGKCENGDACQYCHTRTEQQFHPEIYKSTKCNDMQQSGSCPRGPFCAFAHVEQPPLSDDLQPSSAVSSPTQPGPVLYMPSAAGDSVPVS
Method: RNA Bind-n-Seq
Molecule type: RNA
Matrix: in vitro
Tested at: not given
Setting: RNA with constant flanks, human-mouse chimeric sites, ends assumed
Relative to: input RNA pool
Direction: higher = stronger binding
Measurement: bound/input enrichment
Constant ends, left off below: GGGAGUUCUACAGUCCGACGAUC … CAACAGAGGAUUGAGCAUCA
Oligonucleotide = AAAGUGAUGACUAUGUUUGUCCAACGACAGGUAUUUUCGGAGAGCAAGGAUGAGAUUGCGUUAGUCCUCUAUGGCACAGAUGGCACUGAUAAUGCCCUUGCUGGCAAGGACCAGUAUCAG; result = 0.101 ratio
Oligonucleotide = AGAUUCCCCCUCCUGAGACCUCCUCCGAAGUUGGAGUCUCUUACAGAUGCCUCAUCCCCUGUUAGCGUUUUAGUUUGGACCACCCAGCCUUGGACAAUUCCAGCCAACCAGGCAAUUUGC; result = 1.18 ratio
Oligonucleotide = AGAAUCUGUGACUGGCUUUACUUAAUUGGUCAUUGAUAGCUUAACAAACAUGGAGAUAAGAUUAGAAAUCUUGACAUCAACAGGUAUCAAGCAGAAAAAACCAUGGCCACGUGUCUCCUG; result = 0.156 ratio
Oligonucleotide = GUGACUGACAUUAAAAUUUCCCCUCAGAAAAGAACUGCAGUAGUCACCAUAAUUCCAUCUGUGGUGAGUGCCAGUCAGAUUGUGGAGCUGGUCCCAGACCUCAGUUUAGACAUGGGAACU; result = 0.435 ratio
Oligonucleotide = UAAGUCCAUUUGUAAGCAUUUAUCCCAAAAGUUUUAAAUUCUGGACCAAUAGUGUUUGUUUCCUGAUUAUUGUAUCCAAUACUUUGCCUAGUAUGUAACUCACUCUUACUGAUAAUAAAA; result = 1.91 ratio
Oligonucleotide = UUACCCGAGAACGAGGAUGAAUUGGAGAGCACCAACAGACGCUAUACCAAGAGGGACUGCAGCACUUUCCUCAGAACUAGUGAGACGGGCAUCGUGGACCAGGUCAUGGUCACUCUCAAC; result = 0.246 ratio
Oligonucleotide = UUUCUACUGCAGCAAACCAUGCUACGAAUUAAGGAUCCUAAGAAGUCACUGGAUUUUUAUACGAGGGUUCUUGGACUGACCCUCCUGCAGAAGCUUGACUUCCCUGCUAUGAAGUUCUCG; result = 0.114 ratio
Oligonucleotide = CUUUUUGAAUCAUUCAAGAGUUUUGAAGGUCUCUUUUAUUUUCUGGGGUCCAUUGUUAACUUUAGUCAGGACCCAGAUGUGCACUUUAAAUAUAUUCAGGCAGCUUGCAAGACUGGGCAA; result = 0.683 ratio
Oligonucleotide = GAUGAUAAUCACACAAACAAGUCACUGUUACAUGACCAGCCUUGGGAUUCUUUUCCUGAUUAGUAUUCUCCCUGGAACCACUGGUCAAGGGGAAUCAAGACGACAAGAACCCGGGGACUU; result = 0.173 ratio
Oligonucleotide = UCUGGCCACACUCGUGUGUAUGGUGUUUGCUUUGUGGACACUUCACUGGGCAAGUUUUUCAUAGGUCAGUUUUCGGAUGACCGCCACUGUUCCAGAUUUAGGACGCUAGUGGCUCACUAU; result = 0.259 ratio
Oligonucleotide = CACGUGUCUGCAGUGCUUGAUGUGGACUACUCUCCCACUGGGAAGGAAUUUGUGUCUGCCAGCUUUGAUAAGUCUAUUAGAAUCUUUCCUGUGGACAAGAGCCGAAGCAGGGAAGUGUAU; result = 0.538 ratio

Sample 4
Target: ABI1, truncated, D143A, DHFR fusion (Arabidopsis thaliana)
Method: DHFR PCA, deep sequencing
Matrix: yeast
Setting: methotrexate growth selection, single substitutions
Together with: (+)-ABA 58 µM
Relative to: wild-type fitted maximum
Direction: higher = stronger binding
Measurement: relative binding score
Parent: PYL1, truncated, DHFR fusion (Arabidopsis thaliana); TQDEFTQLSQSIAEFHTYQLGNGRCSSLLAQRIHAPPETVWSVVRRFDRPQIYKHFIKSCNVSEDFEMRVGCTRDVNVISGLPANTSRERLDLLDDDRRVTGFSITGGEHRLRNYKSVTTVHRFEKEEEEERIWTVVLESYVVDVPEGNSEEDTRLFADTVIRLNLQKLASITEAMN
Variant = T1K; result = 89.2%
Variant = N165E; result = 0.957%
Variant = I12Y; result = 37.1%
Variant = S63E; result = 84.6%
Variant = V43D; result = -14.6%
Variant = E125K; result = 93.3%
Variant = D65W; result = 62.2%
Variant = L166D; result = 3.18%
Variant = S27M; result = 31.4%
Variant = V121M; result = 25%
Variant = V118Y; result = 26.5%
Variant = N61Q; result = 94.3%
Variant = D65P; result = 92.4%
Variant = L29W; result = 16.2%

Sample 5
Target: DDIT3, bZIP domain (human)
Method: DHFR protein complementation
Matrix: yeast
Setting: single substitutions, most at no-binding floor
Relative to: wild-type JUN-FOS pair
Direction: higher = stronger binding
Measurement: binding fitness
Parent: JUN, bZIP domain (human); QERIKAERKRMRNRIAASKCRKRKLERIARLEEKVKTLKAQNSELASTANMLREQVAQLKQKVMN; partner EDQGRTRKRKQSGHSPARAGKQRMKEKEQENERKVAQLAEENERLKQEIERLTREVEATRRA
Variant = V56L; result = 0.158 natural log
Variant = Q58H; result = 0.0209 natural log
Variant = K36E; result = 0.0781 natural log
Variant = L38S; result = -1.31 natural log
Variant = A40H; result = -0.0274 natural log
Variant = A40G; result = -0.289 natural log
Variant = L52A; result = -1.19 natural log
Variant = R30N; result = 0.0537 natural log
Variant = A29N; result = -0.0434 natural log
Variant = A49V; result = 0.0168 natural log
Variant = K36P; result = -1.3 natural log
Variant = A29P; result = -0.9 natural log
Variant = S43V; result = 0.0275 natural log
Variant = E32H; result = -0.37 natural log
Variant = Q55M; result = 0.0469 natural log
Variant = E44I; result = -0.0414 natural log
Variant = T48L; result = 0.00528 natural log
Variant = R30A; result = 0.265 natural log
Variant = R53D; result = -1.25 natural log

Sample 6
Target: Histone acetyltransferase KAT6A, both winged helices, GST fusion (KAT6A, Homo sapiens, UniProt Q92794, residues 1-181)
Method: protein binding microarray
Molecule type: double-stranded DNA, one strand shown
Matrix: in vitro
Tested at: not given
Setting: 8-mer, flanks averaged, mean of 2 arrays, mostly near background
Relative to: not given
Direction: higher = stronger binding
Measurement: E-score
Residues (chain): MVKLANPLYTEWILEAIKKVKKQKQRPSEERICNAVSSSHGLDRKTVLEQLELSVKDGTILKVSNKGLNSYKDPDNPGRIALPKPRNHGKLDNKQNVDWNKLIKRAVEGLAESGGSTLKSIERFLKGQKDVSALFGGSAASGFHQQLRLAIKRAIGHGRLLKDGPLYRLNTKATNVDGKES
Oligonucleotide = AGGCCTGC; result = 0.0306
Oligonucleotide = TATAGTGA; result = -0.121
Oligonucleotide = ACGTTCTG; result = 0.0364
Oligonucleotide = AGCGTCTG; result = 0.182
Oligonucleotide = AACTCCTG; result = -0.177
Oligonucleotide = GCAAGTGC; result = -0.017
Oligonucleotide = CTAATTCA; result = 0.0365
Oligonucleotide = TACGCCTA; result = -0.0275
Oligonucleotide = ACTAGAGC; result = -0.00545
Oligonucleotide = AGTGCACG; result = 0.197
Oligonucleotide = GCCACTCC; result = 0.0156
Oligonucleotide = CCACAAAC; result = -0.0582
Oligonucleotide = CTTTAACC; result = -0.017
Oligonucleotide = TTGTAAAA; result = -0.0985
Oligonucleotide = ACTGCGGC; result = 0.111
Oligonucleotide = AGCATTAA; result = -0.17

Mixed results
Molecule = PhoQ, residues 284 288 289 292 302 303 TNASYF; target = PhoP, residues 12 14 15 18 19 SEGLL (Escherichia coli, UniProt P23836); assay = Sort-seq, measured: YFP reporter; system = E. coli; conditions = PhoQ-PhoP variant library, together with: 10 µM Mg2+; scale = relative to: high Mg2+ state, higher = stronger signaling; measurement = fold induction; result = 10.1
